# Experimental data collected from several papers.
# LATS2: Serine/threonine-protein kinase LATS2 (LATS2, Homo sapiens, UniProt Q9NRM7)
# UniProt Q9NRM7, sequence (whole entry, looked up): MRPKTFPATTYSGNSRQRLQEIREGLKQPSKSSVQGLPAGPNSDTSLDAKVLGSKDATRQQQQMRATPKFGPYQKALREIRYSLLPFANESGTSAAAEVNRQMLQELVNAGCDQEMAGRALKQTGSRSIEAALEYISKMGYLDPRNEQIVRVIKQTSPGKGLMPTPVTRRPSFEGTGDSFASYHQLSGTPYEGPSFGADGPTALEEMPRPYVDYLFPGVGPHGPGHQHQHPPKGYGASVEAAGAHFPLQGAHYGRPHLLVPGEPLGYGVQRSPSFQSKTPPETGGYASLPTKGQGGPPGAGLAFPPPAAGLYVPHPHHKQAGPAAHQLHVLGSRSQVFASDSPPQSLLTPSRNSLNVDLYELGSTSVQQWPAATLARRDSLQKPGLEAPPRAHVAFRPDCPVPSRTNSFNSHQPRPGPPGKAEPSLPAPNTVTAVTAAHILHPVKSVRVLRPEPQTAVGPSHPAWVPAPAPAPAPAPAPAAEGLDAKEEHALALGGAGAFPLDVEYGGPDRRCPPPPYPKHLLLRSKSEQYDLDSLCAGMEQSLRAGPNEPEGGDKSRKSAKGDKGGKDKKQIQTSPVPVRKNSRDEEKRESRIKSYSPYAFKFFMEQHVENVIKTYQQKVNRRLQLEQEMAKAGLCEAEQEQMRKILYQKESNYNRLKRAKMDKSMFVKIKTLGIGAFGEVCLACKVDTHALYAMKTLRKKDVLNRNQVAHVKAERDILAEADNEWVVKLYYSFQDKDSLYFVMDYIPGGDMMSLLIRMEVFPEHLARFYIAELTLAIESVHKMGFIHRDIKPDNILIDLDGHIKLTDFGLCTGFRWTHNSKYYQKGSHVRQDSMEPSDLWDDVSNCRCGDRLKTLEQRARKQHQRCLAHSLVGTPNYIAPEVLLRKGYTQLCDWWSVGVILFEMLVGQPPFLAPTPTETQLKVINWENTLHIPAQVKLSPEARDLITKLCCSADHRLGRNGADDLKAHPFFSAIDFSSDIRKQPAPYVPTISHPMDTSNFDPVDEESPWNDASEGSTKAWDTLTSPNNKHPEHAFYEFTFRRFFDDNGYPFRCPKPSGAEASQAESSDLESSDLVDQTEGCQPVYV
# UCHL1: Ubiquitin carboxyl-terminal hydrolase isozyme L1 (UCHL1, Homo sapiens, UniProt P09936)
# UniProt P09936, sequence (whole entry, looked up): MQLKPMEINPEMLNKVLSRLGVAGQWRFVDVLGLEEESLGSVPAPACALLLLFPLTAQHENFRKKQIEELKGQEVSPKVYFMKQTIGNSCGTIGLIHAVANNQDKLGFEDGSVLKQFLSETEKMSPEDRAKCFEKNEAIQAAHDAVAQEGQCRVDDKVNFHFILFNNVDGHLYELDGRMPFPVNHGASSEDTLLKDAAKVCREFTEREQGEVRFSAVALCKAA
SMILES,target,assay,test system,setting,scale,quantity,value
O=C(NC1CCC1)c1ccc2nc(-c3cccc(NS(=O)(=O)NCCN4CCCCC4)c3)cn2c1,LATS2,enzyme activity,,10 µM,,remaining activity,100%
COc1ccc(N(C(=O)CCl)C2C=CS(=O)(=O)C2)cc1 (stereo not shown),UCHL1,"covalent, intact protein LC-MS",,12.5 µM,,labelling,14.6%
CC[C@@H]1[C@H](F)C(=O)N[C@@H]1COc1nccc2cc(C(N)=O)c(OC)cc12,LATS2,"ATP-site probe binding, ActivX profiling",THP-1 cell lysate,"0.04 mM, Lys2 site",,inhibition,-16%
COc1cc(-c2cncc3c2CN(C)Cc2cc(N4CCNCC4)ccc2-3)cc(OC)c1OC,LATS2,kinase activity,,"1 µM, human enzyme, added: ATP 10 µM",relative to: DMSO control,remaining activity,109%
C=CC(=O)N1CCC(COCC(=O)N2CCN(c3nc(-c4cnc(N)nc4C(F)F)nc(N4CCOC[C@@H]4C)n3)CC2)CC1,LATS2,KINOMEscan,,1 µM,relative to: DMSO control,remaining binding,87%
C=CC(=O)Nc1ccc(C)cc1S(=O)(=O)N1CCOCC1,UCHL1,"covalent, intact protein LC-MS",,12.5 µM,,labelling,10.8%
Cc1cc(-c2ccnc3[nH]cc(F)c23)cc(F)c1[C@@]1(O)[C@H](C)CN(C2CCS(=O)(=O)CC2)C[C@@H]1C,LATS2,"ATP probe binding, KiNativ, refers to: Lys2 site",HEK293T cell lysate,0.1 µM,,inhibition,30.5%
C=CC(=O)N1CCC(C(=O)NCC(=O)N2CCN(c3nc(-c4cnc(N)nc4C(F)F)nc(N4CCOCC4)n3)CC2)CC1,LATS2,KINOMEscan,,1 µM,,remaining binding,100%
C[C@@H](c1ccc(-n2cnc3c(N)ncnc32)cc1)N1CCc2nn(C)c(Cc3ccccc3)c2C1=O,LATS2,KINOMEscan,,0.1 µM,relative to: DMSO control,remaining binding,100%
C1=C/COCc2cc(ccc2OCCN2CCCC2)Nc2nccc(n2)-c2cccc(c2)COC/1,LATS2,,,concentration not given,,percent of control,88%

# Excerpt of the above:
SMILES,target,assay,test system,setting,scale,quantity,value
C=CC(=O)N1CCC(C(=O)NCC(=O)N2CCN(c3nc(-c4cnc(N)nc4C(F)F)nc(N4CCOCC4)n3)CC2)CC1,LATS2,KINOMEscan,,1 µM,,remaining binding,100%
